Results pooled from the literature.
Each numbered part is a random draw from the data of one study; scales do not carry over between parts.
UniProt Q9Y616, sequence (whole entry, looked up): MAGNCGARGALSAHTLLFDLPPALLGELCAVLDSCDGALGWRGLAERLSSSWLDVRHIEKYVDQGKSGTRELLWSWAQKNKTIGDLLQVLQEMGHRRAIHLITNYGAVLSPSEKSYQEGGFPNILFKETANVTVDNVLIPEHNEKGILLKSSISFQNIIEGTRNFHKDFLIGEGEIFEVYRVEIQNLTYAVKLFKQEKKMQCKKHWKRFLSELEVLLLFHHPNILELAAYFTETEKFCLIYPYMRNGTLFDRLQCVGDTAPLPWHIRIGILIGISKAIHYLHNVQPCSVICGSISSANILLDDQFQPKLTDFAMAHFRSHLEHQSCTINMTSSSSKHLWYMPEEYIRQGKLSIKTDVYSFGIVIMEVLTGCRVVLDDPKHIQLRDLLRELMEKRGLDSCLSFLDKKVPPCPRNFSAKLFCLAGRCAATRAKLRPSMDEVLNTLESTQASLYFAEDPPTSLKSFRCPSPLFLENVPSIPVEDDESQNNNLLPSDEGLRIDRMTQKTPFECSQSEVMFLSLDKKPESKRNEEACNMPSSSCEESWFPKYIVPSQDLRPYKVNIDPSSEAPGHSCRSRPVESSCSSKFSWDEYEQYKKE
UniProt Q96J92, sequence (whole entry, looked up): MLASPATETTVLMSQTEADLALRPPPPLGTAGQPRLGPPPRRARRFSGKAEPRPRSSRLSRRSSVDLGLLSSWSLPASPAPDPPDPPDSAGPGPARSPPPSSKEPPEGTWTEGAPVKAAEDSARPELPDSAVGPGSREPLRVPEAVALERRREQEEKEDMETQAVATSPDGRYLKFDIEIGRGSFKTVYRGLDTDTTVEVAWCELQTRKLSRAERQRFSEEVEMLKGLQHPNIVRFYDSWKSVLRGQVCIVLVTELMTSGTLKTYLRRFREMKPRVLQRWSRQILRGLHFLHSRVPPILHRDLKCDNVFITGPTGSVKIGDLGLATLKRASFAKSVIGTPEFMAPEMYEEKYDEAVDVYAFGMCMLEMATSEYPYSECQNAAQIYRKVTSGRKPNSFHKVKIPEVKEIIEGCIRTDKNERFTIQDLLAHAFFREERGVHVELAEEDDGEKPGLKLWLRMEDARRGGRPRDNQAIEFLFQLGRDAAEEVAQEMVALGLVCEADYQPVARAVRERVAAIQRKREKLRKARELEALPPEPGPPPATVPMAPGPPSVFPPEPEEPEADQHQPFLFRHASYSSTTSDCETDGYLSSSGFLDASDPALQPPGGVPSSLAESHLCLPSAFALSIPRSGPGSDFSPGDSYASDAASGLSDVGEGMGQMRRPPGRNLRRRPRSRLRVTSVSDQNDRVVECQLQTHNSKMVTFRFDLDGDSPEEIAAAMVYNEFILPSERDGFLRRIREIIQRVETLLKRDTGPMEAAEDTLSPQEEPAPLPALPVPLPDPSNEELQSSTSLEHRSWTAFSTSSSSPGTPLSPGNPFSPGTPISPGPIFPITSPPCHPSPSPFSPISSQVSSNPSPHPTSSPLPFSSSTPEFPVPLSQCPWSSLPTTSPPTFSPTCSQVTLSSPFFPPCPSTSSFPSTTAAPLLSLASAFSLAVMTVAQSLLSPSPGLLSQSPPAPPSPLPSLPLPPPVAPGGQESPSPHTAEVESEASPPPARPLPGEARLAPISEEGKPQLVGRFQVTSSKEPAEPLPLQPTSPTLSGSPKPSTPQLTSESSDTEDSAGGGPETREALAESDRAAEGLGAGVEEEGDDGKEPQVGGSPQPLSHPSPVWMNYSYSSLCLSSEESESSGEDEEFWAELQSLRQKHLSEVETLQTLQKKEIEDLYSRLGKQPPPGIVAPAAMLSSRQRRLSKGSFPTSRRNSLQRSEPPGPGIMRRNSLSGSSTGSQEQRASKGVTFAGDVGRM
UniProt O43293, sequence (whole entry, looked up): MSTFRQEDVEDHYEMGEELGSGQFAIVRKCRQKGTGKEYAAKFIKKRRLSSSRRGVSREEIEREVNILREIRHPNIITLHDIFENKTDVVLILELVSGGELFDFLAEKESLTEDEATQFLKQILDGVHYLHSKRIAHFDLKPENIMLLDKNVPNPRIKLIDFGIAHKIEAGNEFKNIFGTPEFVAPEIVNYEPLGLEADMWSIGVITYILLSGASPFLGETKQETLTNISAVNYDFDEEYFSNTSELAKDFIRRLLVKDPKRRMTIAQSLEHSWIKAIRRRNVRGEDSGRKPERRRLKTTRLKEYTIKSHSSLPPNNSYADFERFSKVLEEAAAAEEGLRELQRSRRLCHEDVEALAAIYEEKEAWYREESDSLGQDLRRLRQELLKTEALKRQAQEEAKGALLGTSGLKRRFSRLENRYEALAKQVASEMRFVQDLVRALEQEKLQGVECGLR
UniProt Q8WXR4, sequence (whole entry, looked up): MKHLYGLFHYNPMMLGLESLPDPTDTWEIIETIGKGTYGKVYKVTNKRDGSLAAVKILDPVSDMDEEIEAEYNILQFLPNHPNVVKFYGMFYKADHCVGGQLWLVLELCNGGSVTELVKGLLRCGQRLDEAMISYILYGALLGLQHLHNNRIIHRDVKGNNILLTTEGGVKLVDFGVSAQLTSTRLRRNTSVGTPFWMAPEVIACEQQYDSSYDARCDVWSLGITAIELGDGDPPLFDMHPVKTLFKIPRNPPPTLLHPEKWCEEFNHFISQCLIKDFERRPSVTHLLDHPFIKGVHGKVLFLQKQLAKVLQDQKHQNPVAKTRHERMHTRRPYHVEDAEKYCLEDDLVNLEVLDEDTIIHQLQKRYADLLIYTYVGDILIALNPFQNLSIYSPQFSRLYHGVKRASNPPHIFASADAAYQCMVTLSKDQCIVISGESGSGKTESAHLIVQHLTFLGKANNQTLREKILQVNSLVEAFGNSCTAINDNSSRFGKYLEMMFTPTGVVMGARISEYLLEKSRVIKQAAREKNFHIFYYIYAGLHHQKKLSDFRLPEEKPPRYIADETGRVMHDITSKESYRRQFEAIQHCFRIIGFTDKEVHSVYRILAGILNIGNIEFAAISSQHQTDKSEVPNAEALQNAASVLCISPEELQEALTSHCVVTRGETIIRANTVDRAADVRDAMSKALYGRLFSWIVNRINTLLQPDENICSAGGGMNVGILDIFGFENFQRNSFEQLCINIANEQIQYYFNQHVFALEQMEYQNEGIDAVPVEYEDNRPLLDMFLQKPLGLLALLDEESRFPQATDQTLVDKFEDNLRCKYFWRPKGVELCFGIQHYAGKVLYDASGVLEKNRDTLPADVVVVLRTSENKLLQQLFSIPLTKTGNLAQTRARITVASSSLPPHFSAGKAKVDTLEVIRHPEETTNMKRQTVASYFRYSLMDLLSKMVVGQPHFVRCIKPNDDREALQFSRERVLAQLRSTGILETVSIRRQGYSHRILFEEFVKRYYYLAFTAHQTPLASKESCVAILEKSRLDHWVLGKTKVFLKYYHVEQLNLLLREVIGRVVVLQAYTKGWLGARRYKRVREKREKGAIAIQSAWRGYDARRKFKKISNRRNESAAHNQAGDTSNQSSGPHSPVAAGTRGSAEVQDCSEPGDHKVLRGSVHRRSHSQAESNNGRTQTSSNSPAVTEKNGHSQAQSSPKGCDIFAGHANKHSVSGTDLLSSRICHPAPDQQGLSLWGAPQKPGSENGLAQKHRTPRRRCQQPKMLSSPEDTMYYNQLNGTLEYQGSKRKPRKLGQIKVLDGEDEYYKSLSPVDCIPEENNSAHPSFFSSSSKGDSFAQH
UniProt O14965, sequence (whole entry, looked up): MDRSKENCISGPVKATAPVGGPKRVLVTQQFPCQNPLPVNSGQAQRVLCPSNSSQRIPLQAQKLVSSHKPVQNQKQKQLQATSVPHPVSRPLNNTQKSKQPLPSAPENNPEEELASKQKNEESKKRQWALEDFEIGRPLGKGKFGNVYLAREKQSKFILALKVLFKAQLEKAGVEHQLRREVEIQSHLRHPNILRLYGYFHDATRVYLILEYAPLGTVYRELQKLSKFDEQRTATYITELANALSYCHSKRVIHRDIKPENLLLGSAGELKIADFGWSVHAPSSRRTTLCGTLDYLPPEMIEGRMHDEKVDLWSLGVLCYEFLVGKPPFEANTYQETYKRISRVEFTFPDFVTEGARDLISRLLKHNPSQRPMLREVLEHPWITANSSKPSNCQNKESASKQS

Sample 1 — medium: mouse brain lysate
SMILES: COc1cc(C(=O)N2CCC(N3CCN(C)CC3)CC2)ccc1Nc1ncc2c(n1)N(C)c1ccccc1C(=O)N2C
target	read-out	technique	concentration	setting	together with	inhibition [%]
NDR2 (mouse)	probe labelling	KiNativ ADP probe	1 µM	LYS1 labelled site	–	-10.4
Receptor tyrosine-protein kinase erbB-4 (Erbb4, Mus musculus, UniProt Q61527)	–	KiNativ profiling	1 µM	LYS1 site	ATP acyl phosphate probe	-9.3
Tyrosine-protein kinase Lyn (Lyn, Mus musculus, UniProt P25911)	–	KiNativ profiling	0.1 µM	LYS1 site	ATP acyl phosphate probe	-10.4
mouse PCTAIRE1/2/3	probe labelling	KiNativ ADP probe	1 µM	LYS2 site DLkPQNLLINER	–	-5.2
mouse PFTAIRE1	probe labelling	KiNativ ATP probe	1 µM	LYS1 site LVALkVIR	–	-4.4
IGF1R (mouse)	probe labelling	KiNativ ADP probe	1 µM	LYS1 labelled site	–	7.6

Sample 2 — action: agonist
Target: Beta-1 adrenergic receptor (ADRB1, Homo sapiens, UniProt P08588)
UniProt P08588, sequence (whole entry, looked up): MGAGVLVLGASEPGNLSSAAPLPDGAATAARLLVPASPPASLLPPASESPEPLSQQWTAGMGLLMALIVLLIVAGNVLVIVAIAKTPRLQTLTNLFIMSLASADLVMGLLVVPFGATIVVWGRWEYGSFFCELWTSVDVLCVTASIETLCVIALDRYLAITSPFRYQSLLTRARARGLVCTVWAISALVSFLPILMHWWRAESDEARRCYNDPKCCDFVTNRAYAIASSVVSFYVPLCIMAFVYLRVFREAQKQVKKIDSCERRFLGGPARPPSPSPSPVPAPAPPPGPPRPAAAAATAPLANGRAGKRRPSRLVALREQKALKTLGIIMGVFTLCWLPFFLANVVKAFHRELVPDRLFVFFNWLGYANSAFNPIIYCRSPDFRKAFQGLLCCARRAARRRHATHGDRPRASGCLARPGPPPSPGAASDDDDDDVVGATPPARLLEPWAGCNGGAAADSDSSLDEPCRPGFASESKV
SMILES	EC50 [µM]
COCCN1CCNc2nc(CNCC(C)(C)CO)n(Cc3ccccc3)c2C1=O	≥ 100
Clc1nc(NCc2cccs2)c2[nH]cnc2n1	≥ 100
O=C(Nc1cnc2c(c1)COCC2)c1ccc2ccccc2n1	≥ 100
O=Cc1cc2ccccc2nc1N1CCOCC1	≥ 100
COc1ccccc1N1CCN(c2ncnc3c2CN(C)CC3)CC1	≥ 100
Cc1noc2c(-c3cccnc3N(C)C)cc(-c3ccccc3)nc12	≥ 100

Sample 3 — action: inhibitor; setting: literature data
Target: Synaptic vesicular amine transporter (SLC18A2, Homo sapiens, UniProt Q05940)
UniProt Q05940, sequence (whole entry, looked up): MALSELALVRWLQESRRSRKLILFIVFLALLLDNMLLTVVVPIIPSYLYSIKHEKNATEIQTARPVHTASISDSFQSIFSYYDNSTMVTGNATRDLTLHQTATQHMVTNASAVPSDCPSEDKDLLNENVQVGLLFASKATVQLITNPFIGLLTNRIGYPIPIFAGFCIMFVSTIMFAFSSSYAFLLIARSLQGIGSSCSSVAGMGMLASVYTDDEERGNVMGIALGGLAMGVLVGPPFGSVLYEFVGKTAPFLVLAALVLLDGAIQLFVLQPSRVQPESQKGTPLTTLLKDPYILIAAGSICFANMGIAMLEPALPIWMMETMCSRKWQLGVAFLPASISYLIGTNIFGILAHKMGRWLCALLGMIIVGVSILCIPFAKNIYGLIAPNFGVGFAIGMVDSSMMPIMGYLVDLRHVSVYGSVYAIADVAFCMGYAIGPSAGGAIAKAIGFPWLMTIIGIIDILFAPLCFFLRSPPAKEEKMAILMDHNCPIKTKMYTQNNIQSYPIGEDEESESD
SMILES	IC50 [µM]
COc1ccc2c(c1)c(CC(=O)O)c(C)n2C(=O)c1ccc(Cl)cc1	> 10
CC(C)[C@H]1CC[C@H](C(=O)N[C@H](Cc2ccccc2)C(=O)O)CC1	> 10
N[C@@H](Cc1cc(I)c(Oc2cc(I)c(O)c(I)c2)c(I)c1)C(=O)O	6.6
CN1CCN2c3ncccc3Cc3ccccc3C2C1 (stereo not shown)	> 10
N[C@@H](Cc1ccc(O)c(O)c1)C(=O)O	8.1
COc1cc2nccc(Oc3ccc(NC(=O)NC4CC4)c(Cl)c3)c2cc1C(N)=O	> 10
CCCc1nn(C)c2c(=O)[nH]c(-c3cc(S(=O)(=O)N4CCN(C)CC4)ccc3OCC)nc12	3.96

Sample 4 — technique: competition with immobilised ligand; concentration: 1 µM
SMILES: CO[C@H]1CC[C@H](CNc2ccc(S(=O)(=O)NC(=O)c3ccc(N4CCN(CC5=C(c6ccc(Cl)cc6)CC(C)(C)CC5)CC4)cc3Oc3cnc4[nH]ccc4c3)cc2[N+](=O)[O-])CC1
target	read-out	remaining binding
Activin receptor type-2A (ACVR2A, Homo sapiens, UniProt P27037)	cell-free assay	91%
Interleukin-1 receptor-associated kinase 3 (IRAK3, Homo sapiens, UniProt Q9Y616)	cell-free assay	100%
Serine/threonine-protein kinase WNK4 (WNK4, Homo sapiens, UniProt Q96J92)	cell-free assay	67%
Aurora kinase A (AURKA, Homo sapiens, UniProt O14965)	cell-free assay	100%
Cyclin-dependent kinase 14 (CDK14, Homo sapiens, UniProt O94921)	cell-free assay	100%
Myosin-IIIb (MYO3B, Homo sapiens, UniProt Q8WXR4)	binding	69%
Receptor-type tyrosine-protein kinase FLT3 (FLT3, Homo sapiens, UniProt P36888, K663Q)	cell-free assay	91%
Serine/threonine-protein kinase Nek4 (NEK4, Homo sapiens, UniProt P51957)	cell-free assay	100%
Death-associated protein kinase 3 (DAPK3, Homo sapiens, UniProt O43293)	cell-free assay	68%

Excerpt of the above (sample 3):
SMILES	IC50 [µM]
CC(C)[C@H]1CC[C@H](C(=O)N[C@H](Cc2ccccc2)C(=O)O)CC1	> 10
N[C@@H](Cc1cc(I)c(Oc2cc(I)c(O)c(I)c2)c(I)c1)C(=O)O	6.6
COc1cc2nccc(Oc3ccc(NC(=O)NC4CC4)c(Cl)c3)c2cc1C(N)=O	> 10
COc1ccc2c(c1)c(CC(=O)O)c(C)n2C(=O)c1ccc(Cl)cc1	> 10
